Experimental data collected from several papers.
Lines come from different studies, so protocols differ. Several values in a cell are separate wells, animals, samples, runs or records. Numbers after ± are the reported error. In brackets after ≈: the same amount, converted by molar mass.

| Structure (SMILES) | organism | assay | system | conditions | scale | endpoint | value |
| --- | --- | --- | --- | --- | --- | --- | --- |
| OC(Cn1cncn1)(Cn1cc(-[c-]2cccc2)nn1)c1ccc(F)cc1F.[Cl-].[Co+3].c1cc[cH-]c1 (racemic) | Brugia pahangi | motility, Worminator | adult female | 50 µM, 6 d | – | inhibition | 19% |
| CCCCNC(CCCC)CSS(=O)(=O)O (stereo not drawn) | Schistosoma mansoni | – | infected mice | 100 mg/kg x4, dosed from day 11, perfusion day 25 | baseline: vehicle | worm burden reduction | -14% |
| Cc1c(CN(C)C(=O)/C=C/c2cnc3c(c2)CC(N)C(=O)N3)oc2ccccc12 (stereo not drawn) | Acinetobacter baumannii | broth microdilution | AR-0278 | – | – | MIC | 32 µg/mL (≈ 82 µM) |
| CCC1(CC)CC(=O)N(C2c3cc(C(=O)NC4c5ccccc5CC4O)ccc3OC2(C)COC)C(=N)N1 (stereo not drawn) | Plasmodium falciparum | – | 3D7 | 10 × EC50, 120 h | – | lag phase | 24 h |
| Nc1c(C(=O)c2ccc(Cl)cc2)sc(S)c1-c1nc2ccccc2s1 | hepatitis A virus | plaque reduction | HM 175 | non-toxic dose NG, mean over three titres | – | viral reduction | 0% |
| CC1(C)[C@H](NC(=O)/C(=N\OCC(=O)N2CCC(C(=O)O)C2)c2nsc(N)n2)C(=O)N1OS(=O)(=O)O (stereo partly drawn) | Proteus mirabilis | agar dilution | ATCC 49565, susceptible | – | – | MIC | 1 µg/mL (≈ 1.87 µM) |
| CCCCCCCCCC(=O)N[C@@H](Cc1c[nH]c2ccccc12)C(=O)N[C@H](CC(N)=O)C(=O)N[C@@H](CC(=O)O)C(=O)N[C@@H]1C(=O)NCC(=O)N[C@@H](CCCNC(=O)OC2/C=C/CCCCC2)C(=O)N[C@@H](CC(=O)O)C(=O)N[C@H](C)C(=O)N[C@@H](CC(=O)O)C(=O)NCC(=O)N[C@H](CO)C(=O)N[C@@H]([C@H](C)CC(=O)O)C(=O)N[C@@H](CC(=O)c2ccccc2N)C(=O)O[C@@H]1C (stereo partly drawn) | Staphylococcus aureus | isothermal microcalorimetry | MRSA | 2.5 µg/mL, 24 h, 37 °C | – | peak heat flow | 0 µW |
| CC1(C)[C@H](NC(=O)/C(=N\OCCN)c2csc(N)n2)C(=O)N1OS(=O)(=O)O | Proteus mirabilis | agar dilution | ATCC 49565, susceptible | – | – | MIC | 0.25 µg/mL (≈ 0.592 µM) |
| CO[C@H]1O[C@H](COC(c2ccccc2)(c2ccccc2)c2ccccc2)[C@@H](OS(=O)(=O)c2ccccc2)[C@H](OS(=O)(=O)c2ccccc2)[C@H]1OS(=O)(=O)c1ccccc1 | Bacillus subtilis | microbial killing, broth dilution | – | – | – | MBC | 16 µg/mL (≈ 18.7 µM) |
| Cc1ccc(N(C)C(=O)[C@H](Cc2ccccc2)NC(=O)Cc2c[nH]c3ccc(O)cc23)cc1 | HIV-1 | viral replication | NL4-3 with subtype C gag/pol | – | – | EC50 | 81 ± 30 nM |
| CC1(C)NC(=O)N(c2ccc(F)c(C(C)(F)F)c2)C1=O | Schistosoma mansoni | – | juvenile stage, infected mice | oral, 50 mg/kg | baseline: untreated infected | worm burden reduction | 50% |
| FC(F)(F)c1cccc(CNc2nc(NC3CCN(Cc4ccccc4)CC3)c3nc[nH]c3n2)c1 | Cryptococcus neoformans | RNA-seq, refers to: IPK1 (CNAG_01294) mRNA | – | 48 µg/mL, 3 h | baseline: untreated wild type | log2 fold change | -0.197 |
| Cc1cc(C(=O)Nc2nc3cccc(C)c3n2[C@H]2CCCCN(C(=O)/C=C/CN(C)C)C2)ccn1 | Trypanosoma brucei brucei | – | Lister 427 | 1.85 µM, 0 h, kill kinetics | – | proliferation | 100% |
| CC(=O)O[C@@H]1[C@@H](OC(C)=O)[C@H](Sc2sc(C(=O)c3ccc(Br)cc3)c(N)c2-c2nc3ccccc3s2)OC[C@H]1OC(C)=O | hepatitis A virus | plaque reduction | HM 175 | non-toxic dose NG, mean over three titres | – | viral reduction | 23.3% |
| O=C(NCC(O)(Cn1cncn1)c1ccc(F)cc1F)[c-]1cccc1.[Cl-].[Co+3].c1cc[cH-]c1 (racemic) | Brugia pahangi | motility, Worminator | adult female | 50 µM, 0 d | – | inhibition | 0% |
| CC1=C(Cn2cc(CN3CCC(=O)CC3)nn2)C(=O)c2ccccc2C1=O | Schistosoma mansoni | – | adult worms | 10 µM, 48 h | – | killing | 42.5% |
| CC(C)(C)NCC(SS(=O)(=O)O)c1ccccc1 (stereo not drawn) | Schistosoma mansoni | – | mice | 400 mg/kg single dose, dosed day 7, perfused 52 | – | female worms recovered | 10 worms per mouse and 15 worms per mouse and 24 worms per mouse and 14 worms per mouse |
| CN(C(=O)[C@H](Cc1ccccc1)NC(=O)Cc1c[nH]c2ccc(O)cc12)c1ccc(Cl)cc1 | HIV-1 | viral replication | – | – | – | EC50 | 32 ± 10 nM |
| C=C(NC(=O)c1csc(-c2nc3c(cc2O)-c2nc(cs2)C(=O)NC(C(C)O)C(=O)NC(=C(C)OC)c2nc(cs2)C(=O)NC2c4nc(cs4)C(=O)NC(COC(=O)c4c5c6c(cccc6n4O)COC(=O)C(OC4CC(C)(O)C(N(C)C)C(C)O4)C2OC5)c2nc-3cs2)n1)C(N)=O (stereo not drawn) | Streptococcus pyogenes | microbial growth | – | clinical isolate | – | MIC90 | 0.0156 µg/mL (≈ 0.0109 µM) |
| Fc1ccc2c(c1)c1nc3ccc(Br)cc3c-1cn2Cc1cn(-c2ccccc2I)nn1 | Giardia duodenalis | UHPLC-Q-TOF-MS, refers to: PC(O-18:0/2:0) | trophozoites | IC50, 0.1963 h | baseline: 0.25% DMSO | fold change | 1.82 |

| Structure (SMILES) | organism | assay | system | conditions | scale | endpoint | value |
| --- | --- | --- | --- | --- | --- | --- | --- |
| c1ccc(CN2CCOCCOCCN(CCCCCCCCCCCCN3CCOCCOCCN(CCCCCCCCCCCCN4CCOCCOCCN(Cc5ccccc5)CCOCCOCC4)CCOCCOCC3)CCOCCOCC2)cc1 | Klebsiella pneumoniae | ciprofloxacin activity | ATCC BAA-2146 | half MIC, with: ciprofloxacin | baseline: ciprofloxacin alone | fold enhancement | 4 fold |
| CC(=O)OC[C@H]1O[C@@H](Sc2sc(C(=O)c3ccc(Br)cc3)c(N)c2-c2nc3ccccc3s2)[C@H](OC(C)=O)[C@@H](OC(C)=O)[C@H]1OC(C)=O | hepatitis A virus | plaque reduction | HM 175 | non-toxic concentration | – | viral titre reduction | 20% |
| CC1C=CC=CC(C)C2C=CC3CC(C)(O)C(Cl)C(C)C3C2C(=O)C(Cl)(Cl)C(=O)C(C)C(=O)O1 (stereo not drawn) | Staphylococcus aureus | – | MRSA clinical isolate | resistant OXA/ERY/TET | – | MIC | 0.1 µg/mL (≈ 0.188 µM) |
| C=C[C@]1(C)C[C@@H](OC(=O)CSc2ccc(NC(=O)c3ccco3)cc2)[C@]2(C)[C@H](C)CC[C@]3(CCC(=O)[C@H]32)[C@@H](C)[C@@H]1O | Mycoplasma gallisepticum | – | infected chickens | intramuscular, 5 mg/kg daily x3, scale 0 to 4 | direction not given | air sac lesion score | 3 and 1 and 2 |
| CCn1c(C)c(CC(=O)N[C@@H](Cc2ccccc2)C(=O)N(C)c2ccccc2)c2ccccc21 | HIV-1 | infectivity of progeny virus | HEK293FT, NL4-3 | – | – | EC50 | 450 ± 60 nM |
| CC(C)[C@@H](C)Nc1nc(-c2cccs2)nc(Cl)c1-c1c(F)cc(F)cc1F | Schistosoma mansoni | motility | adult worms, ex vivo | 24 h | – | EC50 | 540 nM |
| CCCCC(CSS(=O)(=O)O)NCC(C)C (stereo not drawn) | Schistosoma mansoni | – | mice | daily x4, 100 mg/kg, from day 11, perfusion day 25 | – | total worms recovered | 77 worms per mouse and 69 worms per mouse and 57 worms per mouse and 53 worms per mouse |
| CC1=C(Cn2cc(CN3CCC(F)(F)CC3)nn2)C(=O)c2ccccc2C1=O | Schistosoma mansoni | – | adult worms | 10 µM, 24 h | – | killing | 40.7% |
| COc1ccc(C2=Nc3cc(OC)c(OC)cc3C(c3ccccc3)N2C2CCN(Cc3ccccc3)CC2)cc1 (racemic) | Naegleria fowleri | – | ATCC 30215 | concentration not given | – | growth inhibition | inactive |
| CC(=O)OC[C@H]1O[C@@H](Sc2sc(C(=O)c3ccc(C)cc3)c(N)c2-c2nc3ccccc3s2)[C@H](OC(C)=O)[C@@H](OC(C)=O)[C@@H]1OC(C)=O | hepatitis A virus | plaque reduction | HM 175 | non-toxic dose NG, mean over three titres | – | viral reduction | 10% |
| COc1ccccc1NC(=O)OC1C(C)C(OC)C=COC2(C)Oc3c(C)c(O)c4c(c3C2=O)C2=NC3(CCN(CC(C)C)CC3)NC2=C(NC(=O)C(C)=CC=CC(C)C(O)C(C)C(O)C1C)C4=O (stereo not drawn) | Mycobacteroides abscessus | intracellular growth, Hill fit | THP-1 derived macrophages, ATCC 19977 | – | – | IC90 | 120 nM |
| CC(=O)O[C@@H]1[C@@H](OC(C)=O)[C@H](Sc2sc(C(=O)c3ccc(Cl)cc3)c(N)c2-c2nc3ccccc3s2)OC[C@H]1OC(C)=O | hepatitis A virus | plaque reduction | HM 175 | non-toxic dose NG, mean over three titres | – | viral reduction | 10% |
| CN(C(=O)[C@H](Cc1ccccc1)NC(=O)Cc1c[nH]c2ccc(O)cc12)c1ccccc1 | HIV-1 | infectivity of progeny virus | HEK293FT, NL4-3 | – | – | EC50 | 380 ± 70 nM |
| Nc1c(C(=O)c2ccc(Br)cc2)sc(S)c1-c1nc2ccccc2s1 | hepatitis A virus | plaque reduction | HM 175 | non-toxic dose NG, mean over three titres | – | viral reduction | 0% |
| C[C@@H]1C(=O)O[C@@H](C)/C=C/C=C\[C@@H](C)[C@@H]2C=C[C@@H]3C[C@@]4(C)O[C@H]4[C@@H](C)[C@H]3[C@@H]2C(=O)C(Cl)(Cl)C1=O | Staphylococcus aureus | – | MRSA clinical isolate | resistant, OXA, CIP, MXF, GEN, CLI | – | MIC | 0.05 µg/mL (≈ 0.101 µM) |
| CC(=O)OC[C@H]1O[C@@H](Sc2sc(C(=O)c3ccc(Cl)cc3)c(N)c2-c2nc3ccccc3s2)[C@H](OC(C)=O)[C@@H](OC(C)=O)[C@H]1OC(C)=O | hepatitis A virus | plaque reduction | HM 175 | non-toxic concentration | – | viral titre reduction | 10% |
| CCCOC(=O)N1c2cc(CNC)ccc2[C@H](NC(=O)C(=O)Nc2ccc(Cl)c(F)c2)[C@H]1CNC(=N)N | HIV-1 | viral infection | TZM-bl, CRF02_AG 263-8 Env pseudovirus | – | – | IC50 | 347 nM |
| CC(=O)O[C@@H]1[C@@H](OC(C)=O)[C@H](Sc2sc(C(=O)c3ccc(C)cc3)c(N)c2-c2nc3ccccc3s2)OC[C@H]1OC(C)=O | hepatitis A virus | plaque reduction | HM 175 | non-toxic dose NG, mean over three titres | – | viral reduction | 20% |
| Cc1[nH]c2ccccc2c1CC(=O)N[C@@H](Cc1ccccc1)C(=O)N(C)c1ccccc1 | HIV-1 | viral replication | – | – | – | EC50 | 610 ± 200 nM |

Some of these lines once more:
| Structure (SMILES) | organism | assay | system | conditions | scale | endpoint | value |
| --- | --- | --- | --- | --- | --- | --- | --- |
| Cc1ccc(N(C)C(=O)[C@H](Cc2ccccc2)NC(=O)Cc2c[nH]c3ccc(O)cc23)cc1 | HIV-1 | viral replication | NL4-3 with subtype C gag/pol | – | – | EC50 | 81 ± 30 nM |
| CC1(C)NC(=O)N(c2ccc(F)c(C(C)(F)F)c2)C1=O | Schistosoma mansoni | – | juvenile stage, infected mice | oral, 50 mg/kg | baseline: untreated infected | worm burden reduction | 50% |
| FC(F)(F)c1cccc(CNc2nc(NC3CCN(Cc4ccccc4)CC3)c3nc[nH]c3n2)c1 | Cryptococcus neoformans | RNA-seq, refers to: IPK1 (CNAG_01294) mRNA | – | 48 µg/mL, 3 h | baseline: untreated wild type | log2 fold change | -0.197 |
| Cc1cc(C(=O)Nc2nc3cccc(C)c3n2[C@H]2CCCCN(C(=O)/C=C/CN(C)C)C2)ccn1 | Trypanosoma brucei brucei | – | Lister 427 | 1.85 µM, 0 h, kill kinetics | – | proliferation | 100% |
| CC(=O)O[C@@H]1[C@@H](OC(C)=O)[C@H](Sc2sc(C(=O)c3ccc(Br)cc3)c(N)c2-c2nc3ccccc3s2)OC[C@H]1OC(C)=O | hepatitis A virus | plaque reduction | HM 175 | non-toxic dose NG, mean over three titres | – | viral reduction | 23.3% |
| O=C(NCC(O)(Cn1cncn1)c1ccc(F)cc1F)[c-]1cccc1.[Cl-].[Co+3].c1cc[cH-]c1 (racemic) | Brugia pahangi | motility, Worminator | adult female | 50 µM, 0 d | – | inhibition | 0% |
